Published values of several laboratories.
Protocols differ between the studies behind these lines. Several values in a cell are separate wells, animals, samples, runs or records. ± gives the spread as reported.
USP13 ZnF-UBD domain: Ubiquitin carboxyl-terminal hydrolase 13, ZnF-UBD domain (USP13, Homo sapiens, UniProt Q92995)
Chain of UniProt Q92995 (whole entry, looked up): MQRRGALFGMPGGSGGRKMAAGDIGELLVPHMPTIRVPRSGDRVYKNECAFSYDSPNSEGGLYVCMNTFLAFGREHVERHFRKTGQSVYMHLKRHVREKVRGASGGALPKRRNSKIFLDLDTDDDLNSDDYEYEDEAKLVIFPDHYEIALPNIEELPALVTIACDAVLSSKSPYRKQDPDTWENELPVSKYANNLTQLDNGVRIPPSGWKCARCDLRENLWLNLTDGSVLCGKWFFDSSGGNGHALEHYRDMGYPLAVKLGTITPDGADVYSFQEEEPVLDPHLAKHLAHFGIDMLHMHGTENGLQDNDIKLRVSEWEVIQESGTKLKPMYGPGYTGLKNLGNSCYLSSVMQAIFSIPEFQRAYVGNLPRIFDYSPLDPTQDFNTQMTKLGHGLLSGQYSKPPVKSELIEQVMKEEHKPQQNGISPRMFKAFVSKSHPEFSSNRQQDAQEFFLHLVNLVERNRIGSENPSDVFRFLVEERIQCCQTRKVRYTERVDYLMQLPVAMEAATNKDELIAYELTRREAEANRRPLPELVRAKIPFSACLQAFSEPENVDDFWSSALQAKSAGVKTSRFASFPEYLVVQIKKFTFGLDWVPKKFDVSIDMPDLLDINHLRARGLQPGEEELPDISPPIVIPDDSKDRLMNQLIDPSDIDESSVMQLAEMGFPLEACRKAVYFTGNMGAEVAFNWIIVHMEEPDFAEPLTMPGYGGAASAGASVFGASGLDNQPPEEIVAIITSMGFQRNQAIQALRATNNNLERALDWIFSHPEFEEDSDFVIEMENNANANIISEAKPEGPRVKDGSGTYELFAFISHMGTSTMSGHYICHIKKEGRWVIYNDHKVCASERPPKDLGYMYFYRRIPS

O=c1cc(-c2ccc(O)c(O)c2)oc2cc(O)cc(O)c12  amount transported (Caco-2 monolayers; basolateral to apical transport; 100 µg/mL, 2 h): 3.34 ± 0.02%
COc1cc2oc(=O)cc(C)c2cc1CCC(=O)O  Kd (USP13 ZnF-UBD domain): 867 µM
COc1cccc(-c2n[nH]c(SCc3ccccn3)n2)c1OC  binucleated cells with micronuclei (CHO-WBL; 100 µg/mL, 3 h, without S9): 1.2%
Cc1ccc(C(=O)O)cc1S(=O)(=O)Nc1cccc(C(=O)CCC(=O)O)c1  Kd (USP13 ZnF-UBD domain): > 1000 µM
COc1ccc(-c2coc3cc(O)ccc3c2=O)cc1  efflux ratio (Caco-2 monolayers; 100 µg/mL, 2 h; baseline: Papp(BL-AP) over Papp(AP-BL)): 0.63 ± 0.01
CCCC(CCC)NC(=O)c1ccc2c(c1)OCO2  relative mitotic index (CHO-WBL; 0.19 mg/mL, 3 h, with rat liver S9): 102%
CC(=O)Oc1ccccc1C(=O)CSc1nc(C)cc(C)c1C#N  CC50 (MRC-5 SV2 lung fibroblasts; cytotoxicity, resazurin; 3 days, 5% heat-inactivated FCS): 12.3 µM
C[C@H]1[C@@H](O)O[C@@H]2O[C@@]3(C)CC[C@H]4[C@H](C)CC[C@@H]1[C@@]24OO3  time to onset of cytotoxicity (ML-2 cells; CellTox Green; concentration not given): 48 h
CC[C@H](C)[C@H](NC(=O)[C@H](CCCNC(=N)N)NC(=O)[C@H](CCC(N)=O)NC(=O)[C@@H](NC(=O)[C@@H](NC(=O)[C@H](CCCNC(=N)N)NC(=O)[C@H](CCCCN)NC(=O)[C@H](Cc1ccccc1)NC(=O)CN)[C@@H](C)CC)C(C)C)C(=O)N[C@@H](CCCCN)C(=O)N[C@@H](CC(=O)O)C(=O)N[C@@H](Cc1ccccc1)C(=O)N[C@@H](CC(C)C)C(=O)N[C@@H](CCCNC(=N)N)C(=O)N[C@@H](CC(N)=O)C(=O)N[C@@H](CC(C)C)C(=O)N[C@H](C(N)=O)C(C)C  HC50 (human erythrocytes; hemolysis; 1 h, 37 °C; baseline: Triton X-100): 160 µM
CC(C)C[C@H](NC(=O)CC[C@@H](C)[C@H]1CC[C@H]2[C@@H]3[C@H](O)C[C@@H]4C[C@H](O)CC[C@]4(C)[C@H]3C[C@H](O)[C@]12C)C(=O)O  recovery (HEK293T; LC-MS; serum-free conditioned medium; 100 µM, overnight; baseline: non-conditioned medium): 114%
C[C@@H]1O[C@@H](OC[C@H]2O[C@@H](Oc3c(-c4ccc(OCCO)c(OCCO)c4)oc4cc(OCCO)cc(O)c4c3=O)[C@H](O)[C@@H](O)[C@@H]2O)[C@H](O)[C@H](O)[C@H]1O  amount transported (Caco-2 monolayers; basolateral to apical transport; 100 µg/mL, 2 h): 2.12 ± 0.6%
CS(=O)(=O)CCNCc1ccc(-c2ccc3ncnc(Nc4ccc(OCc5cccc(F)c5)c(Cl)c4)c3c2)o1  Papp A-B (MDCK-II cells, parental; bidirectional transwell permeability; 1 µM, 1 h, pH 7.4): 1.42 ± 0.53 ×10⁻⁶ cm/s
C[C@@H](OC(C)(C)C)[C@H](NC(=O)OCc1ccccc1)C(=O)N[C@@H](CC1CCCCC1)C(=O)NN(CCC(N)=O)C(=O)C(Cl)Cl  CC50 (HEK293T): 59.5 µM
O=C(C[C@@H](C(F)F)n1ccc(F)n1)N1CCC(O)(Cn2cnc3c(cnn3-c3ccc(F)cc3)c2=O)CC1  viability (CAPAN-1 parental; SRB; 0.02744 µM, 5 days): 72.8% and 66.3%
COc1cc(/C=C/C=C2\SC(=S)NC2=O)cc(OC)c1O  viability (HEK-293T; CellTiter-Glo; 2.5 µM, 24 h, unit not given; baseline: untreated): 0.987 and 1.05
O=C(CCc1ccc(O)cc1)c1c(O)cc(O)cc1O[C@@H]1O[C@H](CO)[C@@H](O)[C@H](O)[C@H]1O  amount transported (Caco-2 monolayers; basolateral to apical transport; 100 µg/mL, 2 h): 4.27 ± 2.5%
O=C(O)c1ccc(CN2C[C@@H]3C[C@H]2CN3Cc2ccc(Oc3ccc(-c4ncco4)cc3)cc2)cc1  slope of fold mRNA vs concentration (cryopreserved human hepatocytes, donor LLT; CYP3A4 induction, refers to: CYP3A4 mRNA; concentration not given, 48 h): -0.00222
C[C@@H]1O[C@@H](O[C@H]2[C@H](Oc3cc(O)c4c(c3)O[C@H](c3ccc(O)cc3)CC4=O)O[C@H](CO)[C@@H](O)[C@@H]2O)[C@H](O)[C@H](O)[C@H]1O  amount transported (Caco-2 monolayers; apical to basolateral transport; 100 µg/mL, 2 h): 16.6 ± 0.9%
Cn1cc(-c2ccc(-c3cncc(Cl)c3N3CCC4(CCNC4=O)CC3)cc2)cn1  log2 fold change (COLO 205; gene expression, microarray, refers to: PLEKHG2 mRNA; concentration not given, 2 h; baseline: untreated cells): 2.5
COc1ccc(NC(=S)N/N=C/c2cccc3cc4ccccc4nc23)cc1  viable cells (HeLa; annexin V/PI; IC25, 48 h): 77 ± 3.1%

Repeated from above:
COc1ccc(-c2coc3cc(O)ccc3c2=O)cc1  efflux ratio (Caco-2 monolayers; 100 µg/mL, 2 h; baseline: Papp(BL-AP) over Papp(AP-BL)): 0.63 ± 0.01
O=C(O)c1ccc(CN2C[C@@H]3C[C@H]2CN3Cc2ccc(Oc3ccc(-c4ncco4)cc3)cc2)cc1  slope of fold mRNA vs concentration (cryopreserved human hepatocytes, donor LLT; CYP3A4 induction, refers to: CYP3A4 mRNA; concentration not given, 48 h): -0.00222
CC[C@H](C)[C@H](NC(=O)[C@H](CCCNC(=N)N)NC(=O)[C@H](CCC(N)=O)NC(=O)[C@@H](NC(=O)[C@@H](NC(=O)[C@H](CCCNC(=N)N)NC(=O)[C@H](CCCCN)NC(=O)[C@H](Cc1ccccc1)NC(=O)CN)[C@@H](C)CC)C(C)C)C(=O)N[C@@H](CCCCN)C(=O)N[C@@H](CC(=O)O)C(=O)N[C@@H](Cc1ccccc1)C(=O)N[C@@H](CC(C)C)C(=O)N[C@@H](CCCNC(=N)N)C(=O)N[C@@H](CC(N)=O)C(=O)N[C@@H](CC(C)C)C(=O)N[C@H](C(N)=O)C(C)C  HC50 (human erythrocytes; hemolysis; 1 h, 37 °C; baseline: Triton X-100): 160 µM
